# Measurements from different studies.
# Numbers after ± are the reported error.
Structure (SMILES),assay,test system,conditions,how to read,measurement,result
COc1ccc(NC(=O)Cn2c(=O)c3ccccc3n(CC(=O)Nc3cc([125I])c(OC)cc3OC)c2=O)cc1,,"rat, kidney","intravenous, 5 min",,tracer uptake,0.58 %ID/g
CC[C@H](C)[C@H](NC(=O)[C@H](Cc1ccccc1)NC(=O)[C@H](CC(=O)O)NC(=O)[C@@H]1CCCNC(=O)NCCC[C@H](NC(=O)[C@H](CC(C)C)NC(=O)[C@H](CCCNC(=N)N)NC(=O)[C@H](CCSC)NC(=O)[C@H](C)N)C(=O)N[C@@H](CCCCN)C(=O)N[C@@H](Cc2ccccc2)C(=O)N[C@@H](Cc2ccccc2)C(=O)N1)C(=O)N[C@@H](CC(C)C)C(=O)N[C@@H](CCC(N)=O)C(=O)N[C@@H](CCCNC(=N)N)C(=O)N[C@@H](CCCCN)C(=O)N[C@@H](CCCCN)C(=O)O,circular dichroism,20% TFE in PBS,"200 µM, pH 7.4, 25 °C",,helicity,31.5%
C[C@@H]1CCCN1CCc1cc2cc(C(=O)c3ccc([18F])cc3)ccc2o1,ultrafiltration,"monkey, plasma",,,fraction unbound,2.08%
CCc1c2c(nc3ccc(OC4OC(C(=O)O)C(O)C(O)C4O)cc13)-c1cc3c(c(=O)n1C2)COC(=O)C3(O)CC (stereo not shown),,"human patients, plasma","intravenous, 133 mg/m^2 of parent drug",,Cmax,163 ng/mL
CC(C)C[C@@H](/C=C/[C@H](Cc1ccccc1)C(=O)N1CCC[C@H]1C(=O)N[C@H](C(=O)N[C@@H](CCCNC(=O)OCc1ccccc1)C(=O)NC1CC(C)(C)N([O])C(C)(C)C1)C(C)C)NC(=O)OC(C)(C)C,metabolic stability,"male mouse, liver microsomes",1 h,,compound remaining,13%
COC(=O)C[C@H](NC(=O)[C@H](C)NC(=O)[C@@H](NC(=O)[C@H](CC(=O)OC)NC(=O)[C@@H](NC(=O)c1ccc2ccccc2n1)C(C)C)C(C)C)C(=O)COc1c(F)cccc1F,,rat pups,"1 mg/kg, 14 d",,body weight,62 ± 2.5 g
CCNc1cc2[o+]c3cc(NCC)c(C)cc3c(-c3ccccc3C(=O)OCCOCC[18F])c2cc1C,,rat,15 min,reference: heart over bone,tissue uptake ratio,4.4
[2H]C([2H])([2H])C([2H])([2H])C([2H])([2H])OC(C(=O)OC1CCNCC1)(c1ccccc1)c1ccccc1,,"healthy Japanese male subjects, plasma","oral, 10 mg once daily, day 1, fed, mean",,Cmax,22 ng/mL
O=c1cc(-c2ccccc2)oc2c(Br)c(O)c(O)c(O)c12,,"C57BL/6 mouse, plasma","oral, 150 mg/kg, single dose",,MRT(0-t),7.8 h
CC[C@H](C)[C@H](NC(=O)[C@H](CCC(=O)O)NC(=O)[C@H](CCC(=O)O)NC(=O)[C@H](Cc1ccccc1)NC(=O)[C@H](CC(=O)O)NC(=O)CNC(=O)[C@H](CC(N)=O)NC(=O)CNC(=O)CNC(=O)CNC(=O)CNC(=O)[C@@H]1CCCN1C(=O)[C@H](CCCNC(=N)N)NC(=O)[C@@H]1CCCN1C(=O)[C@H](N)Cc1ccccc1)C(=O)N1CCC[C@H]1C(=O)N[C@@H](CCC(=O)O)C(=O)N[C@@H](CCC(=O)O)C(=O)N[C@@H](Cc1ccc(O)cc1)C(=O)N[C@@H](CC(C)C)C(=O)O,,"male human, plasma","intravenous, 0.5 mg/kg, single dose, healthy volunteers",,clearance,5.8 mL/min/kg
CC(=O)OC1O[C@@H]2O[C@@]3(C)CC[C@H]4[C@H](C)CCC([C@H]1C)[C@@]24OO3 (stereo partly shown),,Tg(fli1:EGFP) zebrafish embryos,"25 µg/mL, up to 48 hpf",,dead embryos,0 count
CC[C@H](C)[C@H](NC(=O)[C@H](CC(=O)O)NC(=O)[C@H](CO)NC(=O)[C@H](CCC(N)=O)NC(=O)[C@H](C)NC(=O)[C@H](CC(=O)O)NC(=O)[C@H](CCC(=O)O)NC(=O)[C@H](Cc1c[nH]cn1)NC(=O)[C@H](Cc1ccc(O)cc1)NC(=O)[C@H](C)NC(=O)[C@H](CC(=O)O)NC(=O)[C@H](CCC(=O)O)NC(=O)[C@H](Cc1c[nH]cn1)NC(=O)[C@H](Cc1ccc(O)cc1)NC(=O)[C@H](C)NC(=O)[C@H](CC(=O)O)NC(=O)[C@H](CCC(=O)O)NC(=O)[C@H](Cc1c[nH]cn1)NC(=O)[C@H](Cc1ccc(O)cc1)NC(=O)[C@H](C)NC(=O)[C@H](CC(=O)O)NC(=O)[C@H](CCC(=O)O)NC(=O)[C@H](Cc1c[nH]cn1)NC(=O)[C@H](Cc1ccc(O)cc1)NC(=O)[C@H](C)NC(=O)[C@H](CC(=O)O)NC(=O)[C@H](CCC(=O)O)NC(=O)[C@H](Cc1c[nH]cn1)NC(=O)[C@@H](N)Cc1ccc(O)cc1)C(=O)N[C@H](C(=O)N[C@@H](C)C(=O)N[C@@H](Cc1c[nH]cn1)C(=O)N[C@@H](CC(C)C)C(=O)N[C@@H](CC(C)C)C(=O)O)C(C)C,,normal mouse,dose not given,,haematocrit,36.7 ± 2.5%
CC[C@@H]1C[C@]1(NC(=O)[C@@H]1C[C@@]2(CN1C(=O)[C@@H](NC(=O)[C@@H](NC(=O)[C@@H]1CCCCN1C(C)C)C1CCCCC1)C(C)(C)C)C(C)(C)C21CCC1)C(=O)NS(=O)(=O)N1CCCC1,refers to: Pain,human,"oral, 50 mg, simultaneous dosing on day 2, together with: ritonavir 100 mg",,subjects with adverse event,0%
CCCCCCCCCCCCC(=O)O.O=C1CCCC2C3CCCN4CCCC(CN12)C34 (stereo not shown),electrical conductivity,water,298.15 K,,standard enthalpy of aggregation,-0.681 kcal/mol
CC(C)[C@H](NC(=O)[C@H](Cc1c[nH]c2ccccc12)NC(=O)[C@H](Cc1ccccc1)NC(=O)[C@@H](NC(=O)[C@@H](NC(=O)[C@H](CCCCN)NC(=O)[C@@H](N)CCCCN)C(C)C)C(C)C)C(=O)N[C@@H](CCCCN)C(=O)N[C@@H](Cc1ccccc1)C(=O)N[C@@H](CCCCN)C(N)=O,"ELISA, refers to: IL-4","mouse, blood","intravenous, 500 µg/kg, 5 days",,cytokine level,13.1 ± 1.75 pg/mL
CC[C@H](C)[C@@H]1NC(=O)[C@H](CCCNC(=N)N)NC(=O)C[C@@H](c2cccc3ccccc23)NC(=O)[C@@H]2CSSC[C@H](NC(=O)C[C@@H](c3cccc4ccccc34)NC(=O)[C@H](CCCNC(=N)N)NC(=O)[C@@H]3CCCN3C(=O)[C@@H]3CCCN3C1=O)C(=O)N[C@@H](Cc1ccccc1)C(=O)N1CCC[C@H]1C(=O)N[C@@H](CC(=O)O)C(=O)N[C@@H](CC(=O)O)C(=O)N[C@@H](Cc1ccccc1)C(=O)N2,refers to: Ki-67,"CD3+ splenic T cells, BALB/c mouse","intravenous, 6 mg/kg on days 0 and 10, 48 h ex vivo",reference: control medium,T-cell proliferation,no effect
CC(C)C[C@H](NC(=O)CN)C(=O)NCC(=O)N[C@@H](CCCCN)C(=O)N[C@@H](CC(C)C)C(=O)N[C@@H](CC(C)C)C(=O)N[C@@H](Cc1c[nH]cn1)C(=O)N[C@@H](C)C(=O)N[C@@H](C)C(=O)N[C@@H](CCCCN)C(=O)N[C@@H](CCCCN)C(=O)N[C@@H](CC(C)C)C(=O)NCC(=O)N[C@@H](CCCCN)C(=O)N[C@@H](C)C(=O)N[C@@H](Cc1c[nH]c2ccccc12)C(=O)N[C@@H](CC(C)C)C(=O)NCC(=O)N[C@@H](CCC(=O)O)C(=O)N[C@@H](CC(C)C)C(=O)N[C@@H](CC(C)C)C(=O)N[C@@H](C)C(=O)N[C@@H](C)C(=O)O,circular dichroism,POPC/POPG 1:1 vesicles,20 µM,,helicity,40%
O=C(NCCCCCn1ccc2ccc(F)cc21)Oc1cccc(F)c1,,porcine liver S9 fraction,"20 µM, 30 min",,parent remaining,62 ± 5%
CC(C)[C@H](NC(=O)CNC(=O)[C@H](CCC(N)=O)NC(=O)[C@H](C)N)C(=O)O,,human,3 mg/kg single dose,,subjects given concomitant medication,0%
COc1cc(NC(=O)C(=O)c2c(C)n(Cc3ccc(Cl)cc3)c3ccc(C)cc23)ccn1,,"cynomolgus monkey, female, plasma","oral, 10 mg/kg, range of individual values",,oral bioavailability,14 to 31%
[11CH3]n1c(=O)n(CCCO)c(=O)c2c1nc(Oc1cccc(OC(F)(F)F)c1)n2Cc1ccc(Cl)cc1,ex vivo biodistribution,"Sprague Dawley rat, heart",30 min post injection,,tracer uptake,1.04 ± 0.05 %ID/g
CC[C@H](C)C(=O)N1CCC(NC(=O)Nc2ccc(OC(F)(F)F)c(F)c2)CC1,,healthy volunteers,"oral, 16 mg single dose, ventricular extrasystoles",,subjects with extrasystoles TEAE,0%
CCN1CCCC1CNC(=O)c1cc(Br)cc(OC)c1O[11CH3] (stereo not shown),multiple-injection PET,"rhesus monkey, brain",,,VND,3 mL/cm³
COC(=O)C[C@](O)(CCCC(C)(C)OC(C)=O)C(=O)O[C@@H]1C(OC)=C[C@]23CCCN2CCc2cc4c(cc2[C@H]13)OCO4,,"CD1 mouse, lung","oral, 1 mg/kg, 2 h",,tissue concentration,101 ng/mL
CSCC[C@H](NC(=O)CNC(=O)[C@H](CCCCN)NC(=O)[C@H](CC(C)C)NC(=O)[C@@H]1CCCN1C(=O)[C@H](CO)NC(=O)[C@H](Cc1c[nH]cn1)NC(=O)[C@H](Cc1c[nH]c2ccccc12)NC(=O)[C@H](CCCNC(=N)N)NC(=O)[C@H](CC(C)C)NC(=O)[C@H](CCCNC(=N)N)NC(=O)[C@H](Cc1c[nH]c2ccccc12)NC(=O)[C@H](CS)NC(=O)CCCCCNC(=O)CN1CCN(CC(=O)O)CCN(CC(=O)O)CCN(CC(=O)O)CC1)C(=O)O [copper-64 labelled],radio-HPLC,mouse serum,"1 h, 37 °C",,intact tracer remaining,94.9%
N=C(N)NCc1ccc(C(=O)NCCCC[C@H](NC(=O)N[C@@H](CCC(=O)O)C(=O)O)C(=O)O)cc1[211At],,"SCID mouse, PC-3 xenografts, stomach",21 h,,tissue uptake,1.91 ± 0.95 %ID/g
CNC(=O)C1CCN(c2ccccc2NC(=O)c2ccc(-c3cc(O)ccc3C)c(C)n2)CC1,metabolic stability,"human, liver microsomes",2 µM,,microsomal CLint,48 µL/min/mg
[Cl-].[Cl][Ru-4]123([n+]4ccccc4-c4cccc([n+]41)-c1cccc[n+]12)[n+]1ccc(-c2ccccc2)c2ccc4c(-c5ccccc5)cc[n+]3c4c21,,zebrafish embryos,20 µM,,toxicity,not toxic
CC[C@H](C)[C@@H]1NC(=O)[C@H](CCCCN)NC(=O)[C@H](CCCCN)NC(=O)[C@H](Cc2ccc(O)cc2)NC(=O)[C@H](CC(C)C)NC(=O)[C@@H]2CCCN2C(=O)[C@H](C)NC(=O)CNC(=O)CNC(=O)[C@H](CO)NC(=O)CNC(=O)CNC(=O)[C@H](CO)NC(=O)[C@H](CCC(=O)O)NC(=O)[C@H](CC(C)C)NC(=O)[C@H](CC(C)C)NC(=O)[C@H](CCCCN)NC(=O)[C@H](CCCCN)NC(=O)[C@H]([C@@H](C)CC)NC(=O)[C@H]([C@@H](C)CC)NC(=O)[C@H](CCCCN)NC(=O)[C@H](CCCCN)NC(=O)[C@H](Cc2ccc(O)cc2)NC(=O)[C@H](CC(C)C)NC(=O)[C@@H]2CCCN2C(=O)CNC(=O)CNC(=O)[C@@H](NC(=O)CN)CSSC[C@@H](C(=O)O)NC(=O)[C@H](CC(C)C)NC(=O)[C@H](CCCCN)NC(=O)[C@H](CCCCN)NC(=O)[C@H]([C@@H](C)CC)NC1=O,,25% human serum,"50 µM, 24 h",reference: 0 h control,remaining intact peptide,4.9 ± 0.1%
CN(C)C(CNC(=O)Nc1cc(C(F)(F)F)ccc1N1CCOCC1)c1ccncc1 (stereo not shown),,"mouse, serum","intraperitoneal, 120 mg/kg single dose",,serum chloride,110 mmol/L
CCCCCCCC/C=C\CCCCCCCCOP(O)(O)=S.N,,"mouse, male, nonirradiated","sc, dose not given",,AUC(0-inf),1520 ng·h/mL

# Excerpt of the above:
Structure (SMILES),assay,test system,conditions,how to read,measurement,result
CSCC[C@H](NC(=O)CNC(=O)[C@H](CCCCN)NC(=O)[C@H](CC(C)C)NC(=O)[C@@H]1CCCN1C(=O)[C@H](CO)NC(=O)[C@H](Cc1c[nH]cn1)NC(=O)[C@H](Cc1c[nH]c2ccccc12)NC(=O)[C@H](CCCNC(=N)N)NC(=O)[C@H](CC(C)C)NC(=O)[C@H](CCCNC(=N)N)NC(=O)[C@H](Cc1c[nH]c2ccccc12)NC(=O)[C@H](CS)NC(=O)CCCCCNC(=O)CN1CCN(CC(=O)O)CCN(CC(=O)O)CCN(CC(=O)O)CC1)C(=O)O [copper-64 labelled],radio-HPLC,mouse serum,"1 h, 37 °C",,intact tracer remaining,94.9%
N=C(N)NCc1ccc(C(=O)NCCCC[C@H](NC(=O)N[C@@H](CCC(=O)O)C(=O)O)C(=O)O)cc1[211At],,"SCID mouse, PC-3 xenografts, stomach",21 h,,tissue uptake,1.91 ± 0.95 %ID/g
CNC(=O)C1CCN(c2ccccc2NC(=O)c2ccc(-c3cc(O)ccc3C)c(C)n2)CC1,metabolic stability,"human, liver microsomes",2 µM,,microsomal CLint,48 µL/min/mg
[Cl-].[Cl][Ru-4]123([n+]4ccccc4-c4cccc([n+]41)-c1cccc[n+]12)[n+]1ccc(-c2ccccc2)c2ccc4c(-c5ccccc5)cc[n+]3c4c21,,zebrafish embryos,20 µM,,toxicity,not toxic
